Published values of several laboratories.
Every numbered part comes from another study and shows a few of its results, in no order. “And” joins repeats or separate records; there may be more than shown. Numbers after ± are the reported error.
UniProt Q5XXA6, sequence (whole entry, unmodified, looked up): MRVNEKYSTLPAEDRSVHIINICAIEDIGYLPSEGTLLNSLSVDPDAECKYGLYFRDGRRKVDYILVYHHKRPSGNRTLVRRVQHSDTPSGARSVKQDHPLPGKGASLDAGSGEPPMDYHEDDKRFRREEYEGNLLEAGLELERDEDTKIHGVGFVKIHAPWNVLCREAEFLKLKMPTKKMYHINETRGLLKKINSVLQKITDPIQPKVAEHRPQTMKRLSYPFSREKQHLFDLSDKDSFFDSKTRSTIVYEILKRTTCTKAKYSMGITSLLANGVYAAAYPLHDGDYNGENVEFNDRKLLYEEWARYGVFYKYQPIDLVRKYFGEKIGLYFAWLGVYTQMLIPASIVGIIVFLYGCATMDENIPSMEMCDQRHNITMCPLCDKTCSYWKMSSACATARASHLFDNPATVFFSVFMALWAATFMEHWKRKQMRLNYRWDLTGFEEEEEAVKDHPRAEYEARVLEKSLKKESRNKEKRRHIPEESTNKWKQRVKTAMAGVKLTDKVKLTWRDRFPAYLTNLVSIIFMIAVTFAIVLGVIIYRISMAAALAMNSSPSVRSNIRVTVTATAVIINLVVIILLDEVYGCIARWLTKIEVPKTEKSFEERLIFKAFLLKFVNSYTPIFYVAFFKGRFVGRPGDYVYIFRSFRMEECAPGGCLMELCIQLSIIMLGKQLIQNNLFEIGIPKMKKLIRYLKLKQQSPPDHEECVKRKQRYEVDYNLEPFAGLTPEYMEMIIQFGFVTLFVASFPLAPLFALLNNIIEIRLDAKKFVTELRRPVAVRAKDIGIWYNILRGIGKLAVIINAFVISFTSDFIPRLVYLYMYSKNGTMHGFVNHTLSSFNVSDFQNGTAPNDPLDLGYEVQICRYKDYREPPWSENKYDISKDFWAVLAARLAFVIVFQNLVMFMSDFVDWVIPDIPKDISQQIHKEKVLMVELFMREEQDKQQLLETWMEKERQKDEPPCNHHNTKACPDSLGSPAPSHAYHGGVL
UniProt P18089, sequence (whole entry, looked up): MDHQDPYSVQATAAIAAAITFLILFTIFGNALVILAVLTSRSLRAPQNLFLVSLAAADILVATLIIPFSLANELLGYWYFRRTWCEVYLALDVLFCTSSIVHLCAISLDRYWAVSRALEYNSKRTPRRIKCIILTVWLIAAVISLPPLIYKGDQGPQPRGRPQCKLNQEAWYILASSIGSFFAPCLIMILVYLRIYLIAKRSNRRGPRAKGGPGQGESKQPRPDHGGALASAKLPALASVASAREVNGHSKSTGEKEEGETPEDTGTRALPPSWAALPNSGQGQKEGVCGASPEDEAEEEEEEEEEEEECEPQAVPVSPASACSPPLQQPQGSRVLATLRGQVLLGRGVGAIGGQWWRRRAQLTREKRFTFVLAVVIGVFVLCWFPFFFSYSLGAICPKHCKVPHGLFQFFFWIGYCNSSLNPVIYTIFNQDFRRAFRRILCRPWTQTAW
UniProt P08913, sequence (whole entry, looked up): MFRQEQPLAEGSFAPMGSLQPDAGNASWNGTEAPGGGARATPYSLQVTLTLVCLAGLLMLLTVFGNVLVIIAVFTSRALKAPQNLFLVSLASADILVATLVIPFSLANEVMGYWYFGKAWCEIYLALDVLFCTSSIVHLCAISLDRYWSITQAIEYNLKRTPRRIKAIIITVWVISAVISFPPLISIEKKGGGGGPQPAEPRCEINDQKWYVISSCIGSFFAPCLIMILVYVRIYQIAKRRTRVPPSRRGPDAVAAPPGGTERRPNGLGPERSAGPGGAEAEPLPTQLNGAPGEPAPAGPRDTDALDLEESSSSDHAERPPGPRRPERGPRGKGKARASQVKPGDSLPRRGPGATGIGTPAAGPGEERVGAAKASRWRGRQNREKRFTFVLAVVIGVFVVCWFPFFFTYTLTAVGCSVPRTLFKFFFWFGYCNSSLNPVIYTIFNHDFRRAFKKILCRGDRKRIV

Set 1 — SMILES: C=CCc1ccc(O)c(-c2cc(CC=C)ccc2O)c1; observed: chloride current; technique: whole-cell voltage clamp
| target | test | conditions | IC50 [µM] |
| --- | --- | --- | --- |
| Anoctamin-1 (ANO1, Homo sapiens, UniProt Q5XXA6, del476-501/F807A) |  | membrane voltage 60 mV | 19.9 |
| Anoctamin-1 (ANO1, Homo sapiens, UniProt Q5XXA6, del476-501/E649D) | inhibitor | E623D mutant at -80 mV | 94.4 |
| Anoctamin-1 (ANO1, Homo sapiens, UniProt Q5XXA6, del476-501/F646A) |  | membrane voltage 40 mV | 20.3 |
| Anoctamin-1 (ANO1, Homo sapiens, UniProt Q5XXA6, del476-501/M544T) | inhibitor | 80 mV holding voltage | 28 |
| Anoctamin-1 (ANO1, Homo sapiens, UniProt Q5XXA6, del476-501/R541D) | inhibitor | R515D mutant at -40 mV | 131 |
| Anoctamin-1 (ANO1, Homo sapiens, UniProt Q5XXA6, del476-501/F803A) |  | membrane voltage 20 mV | 19.2 |
| Anoctamin-1 (ANO1, Homo sapiens, UniProt Q5XXA6, del476-501/M544A) | inhibitor | pore pocket mutant M518A at 100 mV, added: 300 nM Ca2+ | 99 ± 2 |
| Anoctamin-1 (ANO1, Homo sapiens, UniProt Q5XXA6, del476-501/E649K) | inhibitor | E623K mutant at 100 mV | 128 |

Set 2
Structure (SMILES): CC(C)(C)c1cnc(CSc2cnc(NC(=O)C3CCN(CCCCCCCCSc4cccc5c4CN(C4CCC(=O)NC4=O)C5=O)CC3)s2)o1 (stereo not shown)
| cell line | test | conditions | scale | viability |
| --- | --- | --- | --- | --- |
| HuT78 | cell growth or viability, trypan blue | 0.5 µM, 48 h |  | 15.2% |
| HH | CCK-8 | 10 nM |  | 101% and 96.8% |
| HH | CCK-8 | 200 nM |  | 0% |
| HuT78 | trypan blue exclusion | 250 nM, 48 h | reference: untreated control | 25% and 27.8% |
| HuT78 | trypan blue exclusion | 50 nM, 48 h | reference: untreated control | 87.4% and 81.3% |
| HH | CCK-8 | 50 nM |  | 78.3% and 82.5% |
| HuT78 | cell growth or viability, trypan blue | 0.1 µM, 48 h |  | 57.4% |
| HuT78 | cell growth or viability, trypan blue | 50 nM, 48 h |  | 86.7% |
| HuT78 | trypan blue exclusion | 1000 nM, 48 h | reference: untreated control | 11.3% and 19.1% |
| HuT78 | cell growth or viability, trypan blue | 1 nM, 48 h |  | 99.8% |

Set 3 — observed: enzyme activity; action: inhibitor; concentration: 0.5 µM; reference: control
Target: SRSF protein kinase 3 (SRPK3, Homo sapiens, UniProt Q9UPE1)
UniProt Q9UPE1, sequence (whole entry, looked up): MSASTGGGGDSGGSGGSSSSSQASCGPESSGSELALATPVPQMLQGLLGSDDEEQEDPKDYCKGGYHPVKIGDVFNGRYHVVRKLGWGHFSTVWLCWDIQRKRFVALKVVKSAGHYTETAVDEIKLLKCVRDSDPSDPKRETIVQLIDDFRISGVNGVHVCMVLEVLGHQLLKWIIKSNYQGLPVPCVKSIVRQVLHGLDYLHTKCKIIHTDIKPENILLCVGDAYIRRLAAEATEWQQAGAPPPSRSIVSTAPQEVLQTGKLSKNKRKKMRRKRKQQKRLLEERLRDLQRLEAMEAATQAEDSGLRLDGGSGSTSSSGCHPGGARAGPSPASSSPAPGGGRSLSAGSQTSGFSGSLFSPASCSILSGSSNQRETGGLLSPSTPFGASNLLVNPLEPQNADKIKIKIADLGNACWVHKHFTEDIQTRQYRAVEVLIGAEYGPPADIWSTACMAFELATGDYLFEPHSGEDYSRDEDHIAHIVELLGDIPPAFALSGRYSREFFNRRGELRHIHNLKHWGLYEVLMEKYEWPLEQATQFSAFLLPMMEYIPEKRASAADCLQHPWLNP
| SMILES | remaining activity [%] |
| --- | --- |
| COc1ccc(S(=O)(=O)N(CCO)c2ccccc2CN(C)CC=Cc2ccc(Cl)cc2)cc1 | 97.3 |
| Oc1ccc(Nc2nc(-c3ccc(Cl)cc3)cs2)cc1 | 98.1 |
| O=C1NC(=O)C(c2c[nH]c3ccccc23)=C1c1c[nH]c2ccccc12 | 90 |
| NC(=O)c1ccc(N(C(N)=O)c2c(F)cccc2F)nc1-c1ccc(F)cc1F | 105 |
| Nc1ncnc2c1cnn2-c1ccccc1 | 96.4 |
| Fc1ccc(-c2nc3n(c2-c2ccncc2)CCS3)cc1 | 98.5 |
| Nc1nccc(-c2c(-c3ccc(F)cc3)ncn2C2CCNCC2)n1 | 99.3 |
| CC(=O)c1ccc(N2CCOCC2)cc1O | 104 |
| N#CC(=C(N)Sc1ccc(N)cc1)c1ccccc1C(F)(F)F | 96.3 |
| O=C1Cc2c([nH]c3ccc([N+](=O)[O-])cc23)-c2ccccc2N1 | 92.7 |
| Cc1ccc(NC2=CC(=O)c3sc(C)nc3C2=O)cc1 | 98.2 |
| CCc1[nH]c(-c2ccc(OC)cc2)nc1-c1ccncc1 | 102 |
| CCCC(=O)Oc1ccc2[nH]c(C(=O)c3cc4ccccc4[nH]3)cc2c1 | 93.2 |
| CC#CC(=O)Nc1cc2c(Nc3ccc(F)c(Cl)c3)ncnc2cn1 | 101 |
| Cc1cncc2cccc(S(=O)(=O)N3CCCN(C(=O)CN)C[C@@H]3C)c12 | 99.9 |
| COc1cc(Nc2c(C#N)cnc3cc(OCCCN4CCN(C)CC4)c(OC)cc23)c(Cl)cc1Cl | 106 |
| Cc1cc(Nc2nc(-c3ccccc3)nc3ccccc23)n[nH]1 | 61.5 |
| Nc1nc(Nc2ccc(S(N)(=O)=O)cc2)nn1C(=O)c1c(F)cccc1F | 86.2 |
| O=S(=O)(NCCNC/C=C/c1ccc(Br)cc1)c1cccc2cnccc12 | 98 |
| CSc1nc(-c2ccnc(N[C@@H](C)c3ccccc3)c2)c(-c2ccc(F)cc2)[nH]1 (racemic) | 92.8 |
| CC(C)(C)n1nc(Cc2cccc3ccccc23)c2c(N)ncnc21 | 92.9 |

Mixed results
AAK1: AP2-associated protein kinase 1 (AAK1, Homo sapiens, UniProt Q2M2I8)
UniProt Q2M2I8, sequence (whole entry, looked up): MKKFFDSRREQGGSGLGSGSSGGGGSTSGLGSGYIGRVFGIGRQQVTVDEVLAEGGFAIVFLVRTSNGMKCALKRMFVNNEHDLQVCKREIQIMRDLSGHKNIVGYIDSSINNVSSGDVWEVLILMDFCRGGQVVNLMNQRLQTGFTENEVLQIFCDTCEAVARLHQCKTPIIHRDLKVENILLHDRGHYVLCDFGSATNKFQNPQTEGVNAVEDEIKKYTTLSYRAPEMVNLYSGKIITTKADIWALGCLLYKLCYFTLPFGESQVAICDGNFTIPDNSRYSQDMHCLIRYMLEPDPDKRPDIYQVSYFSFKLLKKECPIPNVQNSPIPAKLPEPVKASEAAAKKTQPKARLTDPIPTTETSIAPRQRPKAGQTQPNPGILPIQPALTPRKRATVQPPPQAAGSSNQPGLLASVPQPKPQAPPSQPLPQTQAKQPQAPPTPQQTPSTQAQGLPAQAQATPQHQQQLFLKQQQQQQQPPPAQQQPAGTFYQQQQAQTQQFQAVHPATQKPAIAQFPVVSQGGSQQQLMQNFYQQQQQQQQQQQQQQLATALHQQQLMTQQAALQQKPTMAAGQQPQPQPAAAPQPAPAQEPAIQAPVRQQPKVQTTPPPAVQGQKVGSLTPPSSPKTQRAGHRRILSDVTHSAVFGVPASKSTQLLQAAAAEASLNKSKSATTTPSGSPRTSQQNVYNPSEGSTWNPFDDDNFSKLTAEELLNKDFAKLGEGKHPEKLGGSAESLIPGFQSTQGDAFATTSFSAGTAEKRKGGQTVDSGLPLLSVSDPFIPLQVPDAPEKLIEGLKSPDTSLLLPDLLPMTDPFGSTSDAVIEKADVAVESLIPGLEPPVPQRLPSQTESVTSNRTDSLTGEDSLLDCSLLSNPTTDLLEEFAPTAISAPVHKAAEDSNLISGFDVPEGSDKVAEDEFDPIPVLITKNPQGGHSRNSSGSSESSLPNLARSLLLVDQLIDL
| SMILES | target | test | conditions | measurement | value |
| --- | --- | --- | --- | --- | --- |
| C[C@H](c1cccc(C#N)c1)n1cc(Cl)cc(C(N)=O)c1=N | Alpha-2B adrenergic receptor (ADRA2B, Homo sapiens, UniProt P18089) | binder, radioligand binding |  | Ki | 0.516 µM |
| Cn1cncc1[C@@](O)(COc1ccc(C#N)cc1-c1ccc(OC(F)(F)F)cc1)c1ccc(C#N)cc1 | AAK1 | binding | 1 µM | remaining binding | 94% |
| N#CC1(c2ccccn2)CCN(Cc2cc(C(=O)O)c(=O)n3ccccc23)CC1 | AAK1 | binding | 1 µM | remaining binding | 100% |
| Cc1cc2c(-c3ccco3)cnc(N[C@H]3CCN(C)C[C@@H]3C(=O)NC3CCCCC3)c2[nH]c1=O | Alpha-2A adrenergic receptor (ADRA2A, Homo sapiens, UniProt P08913) | ligand displacement | 10 µM | inhibition | 9.8% |

For quick reference, copied from above (set 3):
| SMILES | remaining activity [%] |
| --- | --- |
| N#CC(=C(N)Sc1ccc(N)cc1)c1ccccc1C(F)(F)F | 96.3 |
| CCc1[nH]c(-c2ccc(OC)cc2)nc1-c1ccncc1 | 102 |
| Oc1ccc(Nc2nc(-c3ccc(Cl)cc3)cs2)cc1 | 98.1 |
| Cc1cc(Nc2nc(-c3ccccc3)nc3ccccc23)n[nH]1 | 61.5 |
| O=C1NC(=O)C(c2c[nH]c3ccccc23)=C1c1c[nH]c2ccccc12 | 90 |
| CC#CC(=O)Nc1cc2c(Nc3ccc(F)c(Cl)c3)ncnc2cn1 | 101 |
